{"data": "Experimental data of several laboratories", "TMPRSS2": "Transmembrane protease serine 2 (TMPRSS2, Homo sapiens, UniProt O15393)", "PFF0160c E182D": "Dihydroorotate dehydrogenase (quinone), mitochondrial (PFF0160c, Plasmodium falciparum, UniProt Q08210, E182D)", "note": "Compare with care: the assays were run in different laboratories.", "chain of UniProt O15393 (whole entry, looked up)": "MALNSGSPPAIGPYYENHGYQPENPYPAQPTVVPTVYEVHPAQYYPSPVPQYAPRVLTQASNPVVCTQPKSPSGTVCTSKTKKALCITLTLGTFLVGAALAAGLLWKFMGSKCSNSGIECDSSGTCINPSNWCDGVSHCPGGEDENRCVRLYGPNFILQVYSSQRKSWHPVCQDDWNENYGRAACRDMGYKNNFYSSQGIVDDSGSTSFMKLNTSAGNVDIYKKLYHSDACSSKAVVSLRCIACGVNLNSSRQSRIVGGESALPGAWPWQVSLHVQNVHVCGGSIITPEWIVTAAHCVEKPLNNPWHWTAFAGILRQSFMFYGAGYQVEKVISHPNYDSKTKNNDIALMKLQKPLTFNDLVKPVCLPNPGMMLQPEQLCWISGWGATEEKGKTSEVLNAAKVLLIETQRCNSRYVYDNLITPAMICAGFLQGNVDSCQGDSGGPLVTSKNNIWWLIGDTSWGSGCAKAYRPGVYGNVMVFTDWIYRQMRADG", "chain of UniProt P07711 (whole entry, looked up)": "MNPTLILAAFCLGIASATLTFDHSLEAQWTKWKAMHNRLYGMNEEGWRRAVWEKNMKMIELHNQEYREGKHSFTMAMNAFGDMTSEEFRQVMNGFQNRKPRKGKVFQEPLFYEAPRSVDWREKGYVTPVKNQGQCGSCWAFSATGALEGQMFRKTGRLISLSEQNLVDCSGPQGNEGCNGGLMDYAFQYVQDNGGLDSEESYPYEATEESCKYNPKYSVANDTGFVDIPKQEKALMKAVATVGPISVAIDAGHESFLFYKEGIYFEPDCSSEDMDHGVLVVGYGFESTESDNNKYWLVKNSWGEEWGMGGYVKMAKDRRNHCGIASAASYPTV", "chain of UniProt P06239 (whole entry, looked up)": "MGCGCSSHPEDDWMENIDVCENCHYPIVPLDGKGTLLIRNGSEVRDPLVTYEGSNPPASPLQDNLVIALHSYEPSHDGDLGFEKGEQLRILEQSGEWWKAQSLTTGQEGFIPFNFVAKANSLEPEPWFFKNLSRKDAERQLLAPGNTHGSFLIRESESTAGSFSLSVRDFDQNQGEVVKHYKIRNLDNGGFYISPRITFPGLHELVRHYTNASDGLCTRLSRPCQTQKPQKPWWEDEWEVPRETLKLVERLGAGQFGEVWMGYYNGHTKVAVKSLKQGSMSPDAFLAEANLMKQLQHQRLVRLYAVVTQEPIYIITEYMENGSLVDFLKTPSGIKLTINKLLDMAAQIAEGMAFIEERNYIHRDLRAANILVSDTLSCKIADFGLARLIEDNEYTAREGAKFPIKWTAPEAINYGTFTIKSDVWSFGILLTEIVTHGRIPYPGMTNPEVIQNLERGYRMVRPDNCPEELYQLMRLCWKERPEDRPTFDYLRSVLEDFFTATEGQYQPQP", "chain of UniProt P18089 (whole entry, looked up)": "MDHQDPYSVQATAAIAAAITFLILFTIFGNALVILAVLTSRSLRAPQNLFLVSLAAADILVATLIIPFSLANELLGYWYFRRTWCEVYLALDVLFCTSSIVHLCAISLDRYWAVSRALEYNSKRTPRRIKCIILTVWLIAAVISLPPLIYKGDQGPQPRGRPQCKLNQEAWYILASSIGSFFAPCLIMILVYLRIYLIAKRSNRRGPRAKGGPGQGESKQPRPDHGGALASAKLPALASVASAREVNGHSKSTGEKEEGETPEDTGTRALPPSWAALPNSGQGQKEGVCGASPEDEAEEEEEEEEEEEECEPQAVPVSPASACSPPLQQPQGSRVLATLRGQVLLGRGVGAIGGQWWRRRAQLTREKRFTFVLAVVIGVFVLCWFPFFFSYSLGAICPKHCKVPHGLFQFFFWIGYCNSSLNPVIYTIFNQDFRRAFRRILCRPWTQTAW", "chain of UniProt P08588 (whole entry, looked up)": "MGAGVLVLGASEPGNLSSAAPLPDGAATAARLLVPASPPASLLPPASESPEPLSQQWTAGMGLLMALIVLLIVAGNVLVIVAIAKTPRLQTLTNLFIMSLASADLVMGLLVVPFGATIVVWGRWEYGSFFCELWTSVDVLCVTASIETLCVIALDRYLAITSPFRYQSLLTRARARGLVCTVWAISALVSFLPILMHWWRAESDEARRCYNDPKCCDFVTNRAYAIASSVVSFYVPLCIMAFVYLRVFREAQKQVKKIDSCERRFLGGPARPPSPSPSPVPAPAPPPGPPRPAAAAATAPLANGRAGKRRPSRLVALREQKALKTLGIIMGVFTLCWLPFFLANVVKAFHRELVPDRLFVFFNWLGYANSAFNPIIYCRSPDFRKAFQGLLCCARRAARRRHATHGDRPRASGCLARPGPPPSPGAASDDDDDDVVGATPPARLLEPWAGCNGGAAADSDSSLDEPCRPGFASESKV", "chain of UniProt P42338 (whole entry, looked up)": "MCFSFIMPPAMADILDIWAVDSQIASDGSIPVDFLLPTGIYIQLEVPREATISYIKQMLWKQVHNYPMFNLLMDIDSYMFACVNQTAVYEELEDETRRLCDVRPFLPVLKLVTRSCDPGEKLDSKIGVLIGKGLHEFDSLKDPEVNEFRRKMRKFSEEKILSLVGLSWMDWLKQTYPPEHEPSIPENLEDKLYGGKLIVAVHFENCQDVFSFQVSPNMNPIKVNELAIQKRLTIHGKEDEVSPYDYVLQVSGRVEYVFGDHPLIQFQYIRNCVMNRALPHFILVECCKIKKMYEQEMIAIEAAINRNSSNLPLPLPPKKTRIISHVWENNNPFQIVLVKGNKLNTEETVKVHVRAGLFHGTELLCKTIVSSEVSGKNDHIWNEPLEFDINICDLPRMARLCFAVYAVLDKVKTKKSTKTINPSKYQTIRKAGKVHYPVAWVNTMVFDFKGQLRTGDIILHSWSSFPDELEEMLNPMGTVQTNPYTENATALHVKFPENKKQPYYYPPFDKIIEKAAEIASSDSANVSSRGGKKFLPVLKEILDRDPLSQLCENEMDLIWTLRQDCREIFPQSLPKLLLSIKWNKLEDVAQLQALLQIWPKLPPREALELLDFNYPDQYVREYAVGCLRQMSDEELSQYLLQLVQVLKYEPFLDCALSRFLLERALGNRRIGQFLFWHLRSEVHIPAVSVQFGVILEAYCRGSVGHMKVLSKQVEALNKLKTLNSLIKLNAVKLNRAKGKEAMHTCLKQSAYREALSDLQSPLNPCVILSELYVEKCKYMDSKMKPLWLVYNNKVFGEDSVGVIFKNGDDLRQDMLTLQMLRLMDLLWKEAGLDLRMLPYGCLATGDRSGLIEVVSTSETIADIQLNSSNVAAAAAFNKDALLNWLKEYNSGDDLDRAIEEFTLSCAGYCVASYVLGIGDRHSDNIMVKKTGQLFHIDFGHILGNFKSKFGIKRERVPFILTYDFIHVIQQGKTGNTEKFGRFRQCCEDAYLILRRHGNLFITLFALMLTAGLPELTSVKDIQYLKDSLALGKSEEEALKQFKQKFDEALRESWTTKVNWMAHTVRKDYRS", "chain of UniProt O14920 (whole entry, looked up)": "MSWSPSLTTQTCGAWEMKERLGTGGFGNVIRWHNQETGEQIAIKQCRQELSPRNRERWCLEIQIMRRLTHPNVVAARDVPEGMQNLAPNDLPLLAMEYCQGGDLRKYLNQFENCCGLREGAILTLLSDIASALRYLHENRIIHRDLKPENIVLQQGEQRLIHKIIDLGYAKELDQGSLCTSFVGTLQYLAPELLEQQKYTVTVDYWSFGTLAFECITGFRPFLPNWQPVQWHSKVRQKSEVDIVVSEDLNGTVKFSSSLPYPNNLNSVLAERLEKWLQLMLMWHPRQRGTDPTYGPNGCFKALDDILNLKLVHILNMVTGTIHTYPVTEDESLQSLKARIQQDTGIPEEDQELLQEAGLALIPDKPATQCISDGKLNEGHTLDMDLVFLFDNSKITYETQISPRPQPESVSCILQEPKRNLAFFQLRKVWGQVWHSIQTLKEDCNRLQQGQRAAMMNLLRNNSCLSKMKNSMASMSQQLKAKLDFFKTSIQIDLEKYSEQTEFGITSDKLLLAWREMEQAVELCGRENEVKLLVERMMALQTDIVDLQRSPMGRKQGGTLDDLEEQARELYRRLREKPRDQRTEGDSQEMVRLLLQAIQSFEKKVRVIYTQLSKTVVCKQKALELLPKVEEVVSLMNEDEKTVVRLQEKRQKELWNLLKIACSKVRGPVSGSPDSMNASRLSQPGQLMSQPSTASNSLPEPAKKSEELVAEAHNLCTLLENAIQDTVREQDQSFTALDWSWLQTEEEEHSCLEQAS"}
{"Compound": "[2H]c1c([2H])c([C@]2([2H])CCCN2C(=O)C(C)(C)Oc2ccc3cn[nH]c3c2)c([2H])c([2H])c1C([2H])([2H])[2H]", "target": "Tyrosine-protein kinase Lck (LCK, Homo sapiens, UniProt P06239)", "read-out": "binding", "technique": "competition with immobilised ligand", "concentration": "1 µM", "endpoint": "remaining binding", "value": "65%"}
{"Compound": "C[C@H](NC(=O)[C@H](CC(N)=O)NC(=O)[C@@H](N)CCCCN)C(=O)N[C@H](CCCNC(=N)N)C(=O)c1nc2ccccc2s1", "target": "TMPRSS2", "read-out": "enzyme activity", "mode": "inhibitor", "concentration": "1 nM", "endpoint": "activity vs control", "value": "103%"}
{"Compound": "O=C1C(c2ccccc2)=C(Nc2ccc([N+](=O)[O-])cc2)c2ccccc21", "target": "PFF0160c E182D", "read-out": "enzyme activity", "mode": "inhibitor", "technique": "absorbance", "endpoint": "IC50", "value": "> 10 µM"}
{"Compound": "CC(C)[C@H](NC(=O)[C@H](COCc1ccccc1)NC(=O)CCc1ccccc1)C(=O)N[C@@H](CCCNC(=N)N)C(=O)c1nc2ccccc2s1", "target": "TMPRSS2", "read-out": "enzyme activity", "mode": "inhibitor", "concentration": "1 nM", "endpoint": "activity vs control", "value": "76%"}
{"Compound": "c1cncc([C@@H]2CCCN2)c1", "target": "Beta-1 adrenergic receptor (ADRB1, Homo sapiens, UniProt P08588)", "read-out": "ligand displacement", "concentration": "50 µM", "endpoint": "inhibition", "value": "14%"}
{"Compound": "CC(C)[C@H](NC(=O)CCc1ccccc1)C(=O)N[C@@H](CCCNC(=N)N)C(=O)c1nc2ccccc2s1", "target": "TMPRSS2", "read-out": "enzyme activity", "mode": "inhibitor", "concentration": "1 nM", "endpoint": "activity vs control", "value": "106%"}
{"Compound": "CC(C)CC(=O)OC[C@H]1O[C@@](C#N)(c2ccc3c(N)ncnn23)[C@H](O)[C@@H]1O", "target": "Alpha-2B adrenergic receptor (ADRA2B, Homo sapiens, UniProt P18089)", "read-out": "cell-free assay", "concentration": "20 µM", "endpoint": "inhibition", "value": "2%"}
{"Compound": "COc1ncccc1-c1cnn2ccc(N3CCN(C(=O)OC(C)C)CC3)nc12", "target": "Phosphatidylinositol 4,5-bisphosphate 3-kinase catalytic subunit beta isoform (PIK3CB, Homo sapiens, UniProt P42338)", "read-out": "binding", "technique": "competition with immobilised ligand", "concentration": "1 µM", "endpoint": "remaining binding", "value": "100%"}
{"Compound": "O=C(Nc1cccc(CN2CCN(C(=O)c3cccc(Cl)c3)CC2)c1)c1ccco1", "target": "PFF0160c E182D", "read-out": "enzyme activity", "mode": "inhibitor", "technique": "absorbance", "endpoint": "IC50", "value": "9.55 µM"}
{"Compound": "Cc1nn(C)cc1-c1nc2c(N3CCN(Cc4ccc(Cl)cc4)CC3)c(Cl)cnc2[nH]1", "target": "Epidermal growth factor receptor (EGFR, Homo sapiens, UniProt P00533, G719S)", "read-out": "binding", "technique": "competition with immobilised ligand", "concentration": "1 µM", "endpoint": "remaining binding", "value": "100%"}
{"Compound": "C#Cc1n[nH]c2c(-c3cn(C(C)c4ccccn4)c(=O)[nH]c3=O)cc(F)cc12 (stereo not shown)", "target": "Inhibitor of nuclear factor kappa-B kinase subunit beta (IKBKB, Homo sapiens, UniProt O14920)", "read-out": "enzyme activity", "mode": "inhibitor", "concentration": "1 µM", "endpoint": "inhibition", "value": "2.2%"}
{"Compound": "O=C1C=CC(=O)c2c(O)cccc21", "target": "Procathepsin L (CTSL, Homo sapiens, UniProt P07711)", "read-out": "enzyme activity", "mode": "inhibitor", "concentration": "100 µM", "endpoint": "remaining activity", "value": "64%"}
{"Compound": "Nc1ncc(-c2nc(N3CCOCC3)nc(N3CCOCC3)n2)c(C(F)F)n1", "target": "Tyrosine-protein kinase ABL1, non-phosphorylated (ABL1, Homo sapiens, UniProt P00519, H396P)", "read-out": "binding", "technique": "competition with immobilised ligand", "concentration": "10 µM", "endpoint": "remaining binding", "value": "60%"}
{"note": "A few entries again:"}
{"Compound": "O=C1C=CC(=O)c2c(O)cccc21", "target": "Procathepsin L (CTSL, Homo sapiens, UniProt P07711)", "read-out": "enzyme activity", "mode": "inhibitor", "concentration": "100 µM", "endpoint": "remaining activity", "value": "64%"}
{"Compound": "Nc1ncc(-c2nc(N3CCOCC3)nc(N3CCOCC3)n2)c(C(F)F)n1", "target": "Tyrosine-protein kinase ABL1, non-phosphorylated (ABL1, Homo sapiens, UniProt P00519, H396P)", "read-out": "binding", "technique": "competition with immobilised ligand", "concentration": "10 µM", "endpoint": "remaining binding", "value": "60%"}
